# Measurements from different studies.
# Protocols differ between the studies behind these lines. Several values in a cell are separate wells, animals, samples, runs or records. ± marks the error that the study gave.
Structure (SMILES),cell line,test,system,conditions,scale,measurement,result
COc1nc(NCc2cn(-c3ccc(C(=O)Nc4ccc(C(F)(F)F)cc4)cc3)nn2)nc(OC)n1,HCT-116,sandwich ELISA,culture supernatant,"IC50, 72 h, unit not given",baseline: untreated,VEGF protein level,0.62
CCn1cc(-c2cc(Cn3ccnc3)cc3c2CCN([C@H](c2cc(OC)ccn2)C2CC2)C3=O)c(C(F)(F)F)n1,SU-DHL-4,"cell growth, inhibitor",,120 h,,EC50,4.61 µM
COC(=O)[C@]12CCC(C)(C)C[C@H]1[C@H]1C(=O)C=C3[C@@]4(C)C=C(C#N)C(=O)C(C)(C)[C@@H]4CC[C@@]3(C)[C@]1(C)CC2,HepG2,"high content imaging, refers to: DNA structure",,"6 h, representative mode",,point of departure,1.17 µM
Cc1cccc(-c2[nH]c(CNc3ccccc3F)nc2-c2ccc3ncnn3c2)n1,CD8+ T cells from myeloma patient,ELISA,human,"0.5 µM, 192 h",,IFN-gamma production,1.07% and 1.1% and 1.31% and 1.04% and 1.33% and 1.25%
NCc1ccc(-c2nn(Cc3ccccn3)c3cccnc23)o1,RBE,"cell viability, CellTiter-Glo",,,,IC50,3.04 µM
COc1cnc2cccc(N3CCc4c(cc(Cn5ccnc5C)cc4-c4cn(C)nc4C(F)(F)F)C3=O)c2c1,HEC-1-A,"cell growth, inhibitor",,120 h,,EC50,> 30 µM
Cn1cc(-c2ccc(-c3cncc(Cl)c3N3CCC4(CCNC4=O)CC3)cc2)cn1,COLO 205,"gene expression, microarray, refers to: LAMA3 mRNA",,"concentration not given, 2 h",baseline: untreated cells,log2 fold change,1.82
CC(C)NCC(O)c1ccc(O)c(O)c1 (centres unmarked),mouse ventricular cardiomyocytes,,,"dose not given, 0.279 s",,sarcomere length,1.8 µm
COc1cc(/C=C/C(=O)N2CCC=CC2=O)cc(OC)c1OC,MDA-MB-468,"quantitative RT-PCR, refers to: FH",,"30 µM, 8 h",baseline: untreated,mRNA level,79 ± 0.4%
CC(=O)O[C@@]12CO[C@@H]1C[C@H](O)[C@@]1(C)C(=O)[C@H](O)C3=C(C)[C@@H](OC(=O)[C@H](O)[C@@H](NC(=O)OC(C)(C)C)c4ccccc4)C[C@@](O)([C@@H](OC(=O)c4ccccc4)[C@H]21)C3(C)C,4T1,flow cytometry,,concentration not given,baseline: PBS,CD133-positive cells,3 fold
O=C(/C=C/C=C/C=C/C1CCCCC1)NC1=C[C@@](O)(/C=C/C=C/C=C/C(=O)NC2=C(O)CCC2=O)[C@@H]2O[C@@H]2C1=O,PK-1,"cell growth, CellTiter-Glo",,78 h,,GI50,19.9 µM
CCn1cc(-c2cc(Cn3ccoc3=N)cc3c2CCN([C@@H](C)c2cc(OC)ccn2)C3=O)c(C(F)(F)F)n1,HEC59,cell growth,,120 h,,EC50,0.176 µM
Cc1cnc(NC2CCOCC2)nc1-n1cnc(C(=O)NC(CN)c2cc(F)cc(Cl)c2)c1 (centres unmarked),Rec1,flow cytometry,,"1 µM, 72 h",,S phase cells,15.1%
CC/C(=N\NC(=O)NCc1cccc(O)c1)c1ccc(O)c(C)c1O,SK-OV-3,Western blot,,"10 µM, 1 h, 3D gellan gum culture, unit not given",baseline: DMSO,TAZ band intensity,0.18 ± 0.04
Cc1nn(-c2ccccc2Br)c(C)c1C(=O)Nc1ccc2ccccc2n1,Wnt-HEK293,"Wnt/β-catenin signalling, inhibitor, luciferase reporter",,1 µM,,inhibition,> 70%
CCCCN1C[C@H](O)[C@@H](O)[C@@H](O)[C@H]1CO,sample H patient fibroblasts,"Gb3 level lowering, LC-MS/MS, refers to: Gb3 d18:1/24:1",,216 h,,IC50,21.2 µM
NC(=O)NOCCCCCCCCCCCCCCCCCCCC[P+](c1ccccc1)(c1ccccc1)c1ccccc1.O=C([O-])C(F)(F)F,HCT-116,"cell growth, live-cell imaging",,"0.2 µM, control at 90% confluence",,cell confluence,70.1 ± 1.95%

# For quick reference, copied from above:
Structure (SMILES),cell line,test,system,conditions,scale,measurement,result
CC/C(=N\NC(=O)NCc1cccc(O)c1)c1ccc(O)c(C)c1O,SK-OV-3,Western blot,,"10 µM, 1 h, 3D gellan gum culture, unit not given",baseline: DMSO,TAZ band intensity,0.18 ± 0.04
O=C(/C=C/C=C/C=C/C1CCCCC1)NC1=C[C@@](O)(/C=C/C=C/C=C/C(=O)NC2=C(O)CCC2=O)[C@@H]2O[C@@H]2C1=O,PK-1,"cell growth, CellTiter-Glo",,78 h,,GI50,19.9 µM
CCn1cc(-c2cc(Cn3ccoc3=N)cc3c2CCN([C@@H](C)c2cc(OC)ccn2)C3=O)c(C(F)(F)F)n1,HEC59,cell growth,,120 h,,EC50,0.176 µM
